Experimental data of several laboratories.
Numbered parts are unrelated; each lists some results of a single study.
Chain of UniProt P31751 (whole entry, looked up): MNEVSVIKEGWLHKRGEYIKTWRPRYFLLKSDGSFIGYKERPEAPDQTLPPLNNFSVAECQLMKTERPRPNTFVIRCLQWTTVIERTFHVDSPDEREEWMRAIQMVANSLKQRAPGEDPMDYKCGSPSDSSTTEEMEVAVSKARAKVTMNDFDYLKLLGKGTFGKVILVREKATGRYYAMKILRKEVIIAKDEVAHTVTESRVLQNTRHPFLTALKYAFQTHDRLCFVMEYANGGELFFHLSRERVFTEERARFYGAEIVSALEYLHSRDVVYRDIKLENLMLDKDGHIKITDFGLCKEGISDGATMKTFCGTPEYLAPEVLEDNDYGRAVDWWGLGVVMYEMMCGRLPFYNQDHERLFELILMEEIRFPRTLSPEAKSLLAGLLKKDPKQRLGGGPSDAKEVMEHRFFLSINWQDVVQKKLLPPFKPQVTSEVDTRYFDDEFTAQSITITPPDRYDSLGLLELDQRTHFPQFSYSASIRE
Chain of UniProt P35968 (whole entry, looked up): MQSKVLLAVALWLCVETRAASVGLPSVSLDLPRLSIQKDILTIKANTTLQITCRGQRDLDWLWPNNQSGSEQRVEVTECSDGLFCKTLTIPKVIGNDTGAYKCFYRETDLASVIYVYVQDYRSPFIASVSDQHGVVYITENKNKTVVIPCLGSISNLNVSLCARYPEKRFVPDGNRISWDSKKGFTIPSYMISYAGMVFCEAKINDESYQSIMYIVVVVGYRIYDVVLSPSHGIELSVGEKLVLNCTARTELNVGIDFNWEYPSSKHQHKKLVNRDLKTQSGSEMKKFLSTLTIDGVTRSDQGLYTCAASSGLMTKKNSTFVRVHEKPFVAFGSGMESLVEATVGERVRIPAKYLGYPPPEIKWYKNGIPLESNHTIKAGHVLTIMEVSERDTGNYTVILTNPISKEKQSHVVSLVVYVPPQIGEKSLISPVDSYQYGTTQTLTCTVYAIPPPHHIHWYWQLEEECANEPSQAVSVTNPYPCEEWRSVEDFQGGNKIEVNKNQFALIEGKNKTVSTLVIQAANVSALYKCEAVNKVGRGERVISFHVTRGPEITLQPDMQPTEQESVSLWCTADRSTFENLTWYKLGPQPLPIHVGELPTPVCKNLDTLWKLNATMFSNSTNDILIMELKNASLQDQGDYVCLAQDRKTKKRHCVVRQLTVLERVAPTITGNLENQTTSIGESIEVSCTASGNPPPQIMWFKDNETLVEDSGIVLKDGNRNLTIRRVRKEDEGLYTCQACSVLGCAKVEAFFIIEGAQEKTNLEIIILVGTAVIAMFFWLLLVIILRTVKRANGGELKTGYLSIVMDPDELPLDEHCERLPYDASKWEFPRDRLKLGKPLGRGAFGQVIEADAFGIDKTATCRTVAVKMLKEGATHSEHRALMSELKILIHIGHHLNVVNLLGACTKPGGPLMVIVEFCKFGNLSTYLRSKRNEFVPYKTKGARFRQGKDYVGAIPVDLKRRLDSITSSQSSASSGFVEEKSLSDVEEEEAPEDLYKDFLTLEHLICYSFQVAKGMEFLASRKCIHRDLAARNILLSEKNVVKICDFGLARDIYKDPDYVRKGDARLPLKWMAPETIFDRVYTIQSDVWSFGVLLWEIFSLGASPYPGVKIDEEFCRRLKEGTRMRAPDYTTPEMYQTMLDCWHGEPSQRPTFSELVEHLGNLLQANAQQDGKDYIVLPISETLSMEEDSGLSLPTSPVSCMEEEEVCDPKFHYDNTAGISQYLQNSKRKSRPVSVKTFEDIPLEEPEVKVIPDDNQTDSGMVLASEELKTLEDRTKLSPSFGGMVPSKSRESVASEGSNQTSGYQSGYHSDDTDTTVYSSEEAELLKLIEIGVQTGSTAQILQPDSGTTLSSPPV
Chain of UniProt Q96L34 (whole entry, looked up): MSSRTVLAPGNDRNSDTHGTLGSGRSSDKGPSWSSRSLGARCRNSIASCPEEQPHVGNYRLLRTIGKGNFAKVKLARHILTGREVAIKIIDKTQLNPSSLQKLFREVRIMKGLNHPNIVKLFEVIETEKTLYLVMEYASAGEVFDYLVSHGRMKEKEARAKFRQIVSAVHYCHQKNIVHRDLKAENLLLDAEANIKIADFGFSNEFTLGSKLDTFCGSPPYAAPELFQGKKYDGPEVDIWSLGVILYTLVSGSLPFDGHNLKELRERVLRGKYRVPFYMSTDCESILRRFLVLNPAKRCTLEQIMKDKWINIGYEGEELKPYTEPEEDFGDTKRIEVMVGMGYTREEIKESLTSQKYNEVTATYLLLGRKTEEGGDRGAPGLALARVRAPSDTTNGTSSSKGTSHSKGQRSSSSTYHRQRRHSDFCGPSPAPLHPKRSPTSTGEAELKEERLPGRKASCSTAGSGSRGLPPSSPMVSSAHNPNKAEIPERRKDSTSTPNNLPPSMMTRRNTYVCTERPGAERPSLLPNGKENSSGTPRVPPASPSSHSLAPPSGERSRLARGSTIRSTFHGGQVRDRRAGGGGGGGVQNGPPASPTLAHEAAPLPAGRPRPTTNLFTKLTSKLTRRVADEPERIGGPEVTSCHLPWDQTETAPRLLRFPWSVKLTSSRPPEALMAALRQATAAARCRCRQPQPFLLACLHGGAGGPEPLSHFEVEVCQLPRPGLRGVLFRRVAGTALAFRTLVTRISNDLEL
Chain of UniProt Q15759 (whole entry, looked up): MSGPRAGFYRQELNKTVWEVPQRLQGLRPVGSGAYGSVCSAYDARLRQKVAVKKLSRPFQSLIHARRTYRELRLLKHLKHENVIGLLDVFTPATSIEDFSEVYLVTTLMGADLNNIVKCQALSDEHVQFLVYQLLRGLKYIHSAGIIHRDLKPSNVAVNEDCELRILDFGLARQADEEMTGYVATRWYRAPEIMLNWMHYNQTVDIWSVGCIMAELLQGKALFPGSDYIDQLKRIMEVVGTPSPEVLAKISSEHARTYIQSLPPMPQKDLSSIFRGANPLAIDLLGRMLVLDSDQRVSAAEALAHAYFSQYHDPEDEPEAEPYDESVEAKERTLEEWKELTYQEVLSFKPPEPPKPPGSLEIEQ
Chain of UniProt Q14164 (whole entry, looked up): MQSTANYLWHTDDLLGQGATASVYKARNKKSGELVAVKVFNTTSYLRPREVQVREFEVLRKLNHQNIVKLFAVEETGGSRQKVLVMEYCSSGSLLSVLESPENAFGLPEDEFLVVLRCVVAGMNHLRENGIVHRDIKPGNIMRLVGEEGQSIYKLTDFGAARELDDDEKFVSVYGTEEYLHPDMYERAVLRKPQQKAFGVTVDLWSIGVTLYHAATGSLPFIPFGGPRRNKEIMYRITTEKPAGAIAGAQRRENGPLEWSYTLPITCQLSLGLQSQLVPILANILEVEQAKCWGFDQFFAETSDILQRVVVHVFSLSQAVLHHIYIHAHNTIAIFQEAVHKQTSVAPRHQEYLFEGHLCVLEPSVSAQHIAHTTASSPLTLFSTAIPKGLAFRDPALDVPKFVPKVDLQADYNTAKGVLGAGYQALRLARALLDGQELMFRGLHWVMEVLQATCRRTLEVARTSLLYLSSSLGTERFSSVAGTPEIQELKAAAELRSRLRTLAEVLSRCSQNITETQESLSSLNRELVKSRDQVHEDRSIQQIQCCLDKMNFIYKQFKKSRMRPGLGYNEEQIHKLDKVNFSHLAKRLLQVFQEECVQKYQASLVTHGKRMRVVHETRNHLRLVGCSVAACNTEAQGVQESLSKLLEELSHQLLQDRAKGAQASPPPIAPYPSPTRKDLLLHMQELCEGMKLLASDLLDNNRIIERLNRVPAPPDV
Chain of UniProt Q99558 (whole entry, looked up): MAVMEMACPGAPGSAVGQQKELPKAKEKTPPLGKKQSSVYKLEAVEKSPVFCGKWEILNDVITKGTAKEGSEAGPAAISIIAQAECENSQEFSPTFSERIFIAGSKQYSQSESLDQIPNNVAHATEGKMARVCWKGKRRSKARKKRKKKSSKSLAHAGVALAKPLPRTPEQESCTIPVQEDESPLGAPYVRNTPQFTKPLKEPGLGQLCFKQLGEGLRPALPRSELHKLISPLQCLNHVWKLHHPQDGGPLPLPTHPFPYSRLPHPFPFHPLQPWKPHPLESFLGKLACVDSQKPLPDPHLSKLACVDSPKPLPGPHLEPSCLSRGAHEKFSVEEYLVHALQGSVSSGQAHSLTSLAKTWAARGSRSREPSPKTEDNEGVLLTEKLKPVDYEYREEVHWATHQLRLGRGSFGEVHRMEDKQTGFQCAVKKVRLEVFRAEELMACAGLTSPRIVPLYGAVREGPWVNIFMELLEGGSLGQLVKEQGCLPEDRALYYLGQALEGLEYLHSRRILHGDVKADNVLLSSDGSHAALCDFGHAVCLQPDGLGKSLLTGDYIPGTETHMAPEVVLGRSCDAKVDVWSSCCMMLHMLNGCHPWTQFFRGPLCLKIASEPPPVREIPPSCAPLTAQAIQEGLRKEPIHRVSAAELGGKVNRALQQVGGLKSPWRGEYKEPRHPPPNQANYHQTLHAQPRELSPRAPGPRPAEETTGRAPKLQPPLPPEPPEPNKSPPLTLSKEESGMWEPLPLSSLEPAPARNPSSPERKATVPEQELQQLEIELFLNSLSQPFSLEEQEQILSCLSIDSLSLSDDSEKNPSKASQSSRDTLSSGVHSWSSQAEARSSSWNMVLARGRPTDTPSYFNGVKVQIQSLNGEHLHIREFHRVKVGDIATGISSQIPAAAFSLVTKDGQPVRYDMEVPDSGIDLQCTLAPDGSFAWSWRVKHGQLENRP
Chain of UniProt P28482 (whole entry, looked up): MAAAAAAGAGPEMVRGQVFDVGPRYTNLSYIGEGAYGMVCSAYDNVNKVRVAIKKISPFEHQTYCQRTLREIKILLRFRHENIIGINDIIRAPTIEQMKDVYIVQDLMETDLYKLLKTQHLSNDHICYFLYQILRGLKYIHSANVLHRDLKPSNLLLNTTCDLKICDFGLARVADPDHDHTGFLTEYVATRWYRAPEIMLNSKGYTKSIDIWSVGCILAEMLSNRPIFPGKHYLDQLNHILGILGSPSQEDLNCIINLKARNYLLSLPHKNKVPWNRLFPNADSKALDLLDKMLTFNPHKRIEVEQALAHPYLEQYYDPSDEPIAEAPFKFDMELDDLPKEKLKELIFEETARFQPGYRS

Study 1 — cell line: A-375; tested at: 100 µM; time: 36 h
SMILES | viability [%]
CNC1CCCN(c2c(F)cc3c(=O)c(C(=O)O)cn(C4CC4)c3c2OC)C1 (stereo not shown) | 111
O=C1c2c(O)cccc2Cc2cccc(O)c21 | 92.6
O=C(O)CCc1nc2ccccc2[nH]1 | 127
NC(=O)N/N=C/c1ccc([N+](=O)[O-])o1 | 52.8
CC(=O)Nc1ncc([N+](=O)[O-])s1 | 99.9
N#CC(c1ccc(Cl)cc1)c1c(Cl)cc(-n2ncc(=O)[nH]c2=O)cc1Cl (stereo not shown) | 101
CC(=O)Oc1cc(C)c(OC(C)=O)c2ccccc12 | 4.04

Study 2 — Structure (SMILES): O=C(Nc1ccccc1)Nc1cccc(Oc2ccc3nccn3n2)c1; tested at: 1 µM
target | technique | setting | baseline | remaining binding [%]
Serine/threonine-protein kinase SBK1 (SBK1, Homo sapiens, UniProt Q52WX2) | competitive binding panel |  | vehicle | 100
Serine/threonine-protein kinase MARK1 (MARK1, Homo sapiens, UniProt Q9P0L2) | competitive binding panel |  | vehicle | 98
Inhibitor of nuclear factor kappa-B kinase subunit epsilon (IKBKE, Homo sapiens, UniProt Q14164) | competitive binding | IKK-epsilon |  | 100
Bone morphogenetic protein receptor type-1B (BMPR1B, Homo sapiens, UniProt O00238) | competitive binding panel |  | vehicle | 100
RAC-beta serine/threonine-protein kinase (AKT2, Homo sapiens, UniProt P31751) | competitive binding panel |  | vehicle | 100

Study 3 — SMILES: CCc1[nH]c(-c2ccc(OC)cc2)nc1-c1ccncc1; effect on: enzyme activity; mode: inhibitor; tested at: 0.5 µM; baseline: control
target | remaining activity
Tyrosine-protein kinase TXK (TXK, Homo sapiens, UniProt P42681) | 100%
Myosin-IIIb (MYO3B, Homo sapiens, UniProt Q8WXR4) | 107%
cGMP-dependent protein kinase 2 (PRKG2, Homo sapiens, UniProt Q13237) | 91.9%
G protein-coupled receptor kinase 4 (GRK4, Homo sapiens, UniProt P32298) | 99.3%
Serine/threonine-protein kinase tousled-like 2 (TLK2, Homo sapiens, UniProt Q86UE8) | 102%
Serine/threonine-protein kinase Nek3 (NEK3, Homo sapiens, UniProt P51956) | 92.4%
Mitogen-activated protein kinase 14 (MAPK14, Homo sapiens, UniProt Q16539) | 113%
Rho-associated protein kinase 1 (ROCK1, Homo sapiens, UniProt Q13464) | 105%
Mitogen-activated protein kinase 11 (MAPK11, Homo sapiens, UniProt Q15759) | 104%
RAC-beta serine/threonine-protein kinase (AKT2, Homo sapiens, UniProt P31751) | 100%
Mitogen-activated protein kinase 1 (MAPK1, Homo sapiens, UniProt P28482) | 97.2%
Vascular endothelial growth factor receptor 2 (KDR, Homo sapiens, UniProt P35968) | 103%
MAP/microtubule affinity-regulating kinase 4 (MARK4, Homo sapiens, UniProt Q96L34) | 96.4%
Serine/threonine-protein kinase DCLK2 (DCLK2, Homo sapiens, UniProt Q8N568) | 103%

Study 4 — effect on: cell-free assay; technique: competition with immobilised ligand; tested at: 1 µM
SMILES: CCc1ccccc1C(=O)Nc1n[nH]c2c(C)c(F)c(C3C(C#N)=C(C)N(C)C(C)=C3C#N)cc12
target | remaining binding
cGMP-dependent protein kinase 1 (PRKG1, Homo sapiens, UniProt Q13976) | 100%
Tyrosine-protein kinase ABL1, non-phosphorylated (ABL1, Homo sapiens, UniProt P00519, H396P) | 95%
Mast/stem cell growth factor receptor Kit (KIT, Homo sapiens, UniProt P10721, L576P) | 91%
Mitogen-activated protein kinase kinase kinase 14 (MAP3K14, Homo sapiens, UniProt Q99558) | 75%
Serine/threonine-protein kinase 3 (STK3, Homo sapiens, UniProt Q13188) | 80%

For quick reference, copied from above (study 3):
target | remaining activity
Rho-associated protein kinase 1 (ROCK1, Homo sapiens, UniProt Q13464) | 105%
Mitogen-activated protein kinase 11 (MAPK11, Homo sapiens, UniProt Q15759) | 104%
RAC-beta serine/threonine-protein kinase (AKT2, Homo sapiens, UniProt P31751) | 100%
Mitogen-activated protein kinase 1 (MAPK1, Homo sapiens, UniProt P28482) | 97.2%
Vascular endothelial growth factor receptor 2 (KDR, Homo sapiens, UniProt P35968) | 103%
